Assay results pooled from the literature.
Each numbered part is a random draw from the data of one study; scales do not carry over between parts. Changes are numbered by the printed parent chain.

Block 1
Target: HLA class I histocompatibility antigen, A alpha chain, allele A*80:01 (Homo sapiens, UniProt P04439)
Observed: peptide-MHC binding
Molecule type: peptide
Concentration: concentration not given
Sequence	binding
RDRFKRTSF	inactive
SLLFREVWK	inactive
SQYDPKELL	inactive
SQLPPACPV	inactive
ALTDLGLIY	active
ITYLMNRFK	inactive
KDGTLFYCY	inactive

Block 2
Target: Fragile X messenger ribonucleoprotein 1, C-terminal low-complexity region (Fmr1, Mus musculus, UniProt P35922)
Technique: RNA Bind-n-Seq
Molecule type: RNA
Matrix: in vitro
Concentration: 200 nM
Setting: whole 134-nt RNA, ends assumed
With: 150 mM LiCl
Reference: input library
Reading: higher = stronger binding
All molecules: 7-deaza-guanosine replaces G
Strand	log2 enrichment
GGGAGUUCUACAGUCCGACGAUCACCAUGCAGGUGGGCAUCUUUGGGAAGUGGGGCAAGGGGGGGAUAGGGAGGGGGGUAACACUUUGGGAACAGGUGGUCCCAGGUCGUGUCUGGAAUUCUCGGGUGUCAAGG	1.39
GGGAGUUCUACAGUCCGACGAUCCACAGACAACACGCACCCACACAGACACAGAGGGAAGGGGUUGGGAUGGGGACAGGGUGCACAGCAGGCCGGGGUAGGACCCCAGCCCCUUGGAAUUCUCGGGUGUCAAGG	-0.136
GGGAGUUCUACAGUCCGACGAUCUAACUUUAGAGGAGGAUCUUAUGGAUAUGGCAGUGGACGUGGAUUUGGGGAUGGCUAUAAUGGGUAUGGAGGAGGACCUGGAGGUGGCAAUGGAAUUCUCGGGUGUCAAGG	0.486
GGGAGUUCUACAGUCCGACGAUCACCAUGCAGGUGGGCAUCUUUGGGAAGUGGGGCAAGGGGGGGAUAGGGAGGGGGGUAACACGUUGGGAACAGGUGGUCCCAGGUCGUUUCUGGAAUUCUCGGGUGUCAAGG	1.6
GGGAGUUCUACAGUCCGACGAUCCCUGUGCUACACAUCGUAUGUACCGAAUCGGGUUUUUUUGGUUUUUUUGGGUUUUUUUGGAAAGUAUUAUGUUACGCCGUUCGGAUCUGCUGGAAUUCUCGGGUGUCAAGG	0.0152
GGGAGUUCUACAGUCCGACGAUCAAGUCCUGUGCUACACAUCGUAUGUACCGAAUCGGAAAAAAAGGUUUUUUUGGUGGAAAGUAUUAUGUUACGCCGUUCGGAUCUGCACUUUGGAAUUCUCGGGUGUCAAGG	-3.13
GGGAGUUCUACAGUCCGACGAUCUAACUUUAGAGGAGGAUCUGAUGGAUAUGGCAGUGGACGUGGAUUUGGGGAUGGCUAUAAUGGGUAUGGAGGAGGACCUGGAGGUGGAAAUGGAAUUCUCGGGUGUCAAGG	0.796
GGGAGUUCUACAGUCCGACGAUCGUCCUGUGCUACACAUCGUAUGUACCGAAUCAAAUUUUUUUAAACCCAAAUUUUUAAAAAAGUAUUAUGUUACGCCGUUCGGAUCUGCACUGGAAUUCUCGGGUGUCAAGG	-2.87

Block 3
Target: UBE2D3 UBC core domain (UniProt P61077)
Technique: yeast two-hybrid
Matrix: yeast
Setting: mostly zero background
Reference: not given
Reading: higher = stronger interaction
B1: DTX2 RING domain (UniProt Q86UW9); chain EELKVPPDEDCIICMEKLSTASGYSDVTDSKAIGSLAVGHLTKCSHAFHLLCLLAMYCNGNKDGSLQCPSCKTIYGEKTGTQ
B2: RNF121 RING domain (UniProt Q9H920); chain MPTKHLSDSVCAVCGQQIFVDVSEEGIIENTYRLSCNHVFHEFCIRGWCIVGKKQTCPYCKEKVDLKRMFS
B3: RNF133 RING domain (UniProt Q8WVZ7); chain DEEINPNGDSCVICFERYKPNDIVRILTCKHFFHKNCIDPWILPHGTCPICKCDILKVLGIQ
B4: SYTL4 RING domain (UniProt Q96C24); chain RGSQHYSDRTCARCQESLGRLSPKTNTCRGCNHLVCRDCRIQESNGTWRCKVCAKEIELKKAT
Residues (chain): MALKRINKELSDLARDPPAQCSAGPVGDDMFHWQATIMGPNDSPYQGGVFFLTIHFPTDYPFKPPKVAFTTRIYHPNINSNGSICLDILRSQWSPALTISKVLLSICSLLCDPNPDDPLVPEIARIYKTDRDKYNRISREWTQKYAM
Sequence	lacZ reporter activity
B1 (DTX2 RING domain)	0
FDGDVDPDLKCALCHKVLEDPLTTPCGHVFCAGCVLPWVVQEGSCPARCRGRLSAKELN (PDZRN3 RING domain (UniProt Q9UPQ7))	0
PEDRESLKSACVVCLSSFKSCVFLECGHVCSCTECYRALPEPKKCPICRQAITRVIPLY (MUL1 RING domain (UniProt Q969V5))	12500
B2 (RNF121 RING domain)	0
KLRKLKEAMLCMVCCEEEINSTFCPCGHTVCCESCAAQLQSCPVCRSRVEHVQHVY (MYLIP RING domain (UniProt Q8WY64))	0
B3 (RNF133 RING domain)	17500
B4 (SYTL4 RING domain)	0
AVPSGLEENLCKICMDSPIDCVLLECGHMVTCTKCGKRMNECPICRQYVIRAVHVF (RFFL RING domain (UniProt Q8WZ73))	0

Block 4
Target: CCNB1, cyclin fold, Cln2 fusion (human)
Technique: yeast growth competition, sequencing
Matrix: yeast
Setting: strong parent motif
Reference: not given
Reading: higher = stronger binding
Parent: viral docking peptide; KGVKRKLFAEDSS; partner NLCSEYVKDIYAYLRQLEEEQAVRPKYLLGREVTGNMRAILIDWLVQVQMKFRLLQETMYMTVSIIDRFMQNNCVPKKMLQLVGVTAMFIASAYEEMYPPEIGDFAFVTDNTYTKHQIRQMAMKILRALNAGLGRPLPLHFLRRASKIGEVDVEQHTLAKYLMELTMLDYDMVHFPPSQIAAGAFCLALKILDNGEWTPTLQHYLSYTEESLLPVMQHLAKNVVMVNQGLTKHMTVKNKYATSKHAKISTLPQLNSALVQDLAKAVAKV
Substitution	normalised enrichment score
R5Q	1.55
K6D	0.106
G2K	1.88
R5K F8L	0.346
F8T	0.364
D11A	1.25

Excerpt of the above (block 4):
Substitution	normalised enrichment score
R5Q	1.55
K6D	0.106
